# Results pooled from the literature.
# Several values in a cell are separate wells, animals, samples, runs or records. Numbers after ± are the reported error.
Compound,test,system,conditions,how to read,endpoint,value
C[C@@H](O)CCOC(=O)C[C@@H](C)O,item: C4-OH acylcarnitine,"human, plasma","60 min, log2-transformed values",,metabolite level,-2.26 ± 0.76 µmol/L
Cc1noc(NS(=O)(=O)c2ccc(N=NN(C)O)cc2)c1C,carrageenan-induced paw edema,Wistar rat,"oral, 100 mg/kg, 3 h after carrageenan, with: carrageenan 1% subplantar",higher = more edema,paw edema volume,5.37 ± 0.38 a.u.
Cn1cc(Nc2nccc(-c3ccc4c(c3)CN(C3COC3)CC[C@H]4NC(=O)c3cn(C(C)(C)C)nn3)n2)cn1,item: Cardiac Hypertrophy Signaling (Enhanced),"splenic B cells, mouse","in vivo, 30 mg/kg, IgD-activated B cells","reference: vehicle, positive = activation",pathway activation z-score,4.73
Cc1cc(C)c(CNC(=O)c2cc(Cl)c3c(c2C)O[C@@](C)([C@H]2CC[C@H](N(C)C)CC2)O3)c(=O)[nH]1,IWG criteria,relapsed/refractory PTCL patients,dose not given,,stable disease as best response,7%
COc1nc(NCc2cn(-c3ccc(C(=O)Nc4ccc(F)cc4)cc3)nn2)nc(OC)n1,"cell viability, MTT","normal colonocytes, rat",72 h,,IC50,111 ± 1.78 nM
Cc1cc(F)cc2c(CCC(=O)N[C@@H]3C(=O)NC[C@H]3O)c(-c3ccc(F)cc3)[nH]c12,,"mice, APOL1 G2, single copy","day 0, before treatment, with: IFNγ plasmid injection",,UACR,40.8 µg/mg and 13.7 µg/mg and 41.1 µg/mg and 9.99 µg/mg and 25.9 µg/mg and 28.4 µg/mg
NCC(=O)Nc1cncc(-c2nn3c(=O)cc(N4CCNCC4)nc3s2)c1,"ADP-induced platelet aggregation, light transmission aggregometry",stable CAD patients on aspirin,"subcutaneous, 0.075 mg/kg, 24 h post-dose, with: ADP 20 µM",reference: placebo,inhibition of platelet aggregation,-9.13%
COc1ncnn2ccc(-c3cnc4nc(C)n(Cc5nnc([C@@H](C)F)o5)c4c3)c12,,"Homo sapiens, relapsed or refractory AML or MDS","dose not given, all patients",,marrow complete response as best response,0%
Cc1nn(-c2nc3c(F)cc(F)cc3s2)c(O)c1C(c1ccc(C(F)(F)F)cc1)c1c(C)nn(-c2nc3c(F)cc(F)cc3s2)c1O,,"mouse, cerulein-induced acute pancreatitis, serum",25 mg/kg,,amylase activity,98.1 mOD/min and 80.7 mOD/min and 140 mOD/min and 94.2 mOD/min and 91.3 mOD/min
O=C(OC(C(F)(F)F)C(F)(F)F)N1CCN(Cc2cccc(Oc3ccccc3)c2)CC1,PET blocking study,"rhesus monkey, brain THA","0.01 mg/kg, compound pretreatment, with: [18F]T-401 tracer",,k4,0.0216 min⁻¹
CC1(C)CCC(c2ccc(Cl)cc2)=C(CN2CCN(c3ccc(C(=O)NS(=O)(=O)c4ccc(N[C@H](CCN5CCOCC5)CSc5ccccc5)c(S(=O)(=O)C(F)(F)F)c4)cc3)CC2)C1,"cell kill, PI exclusion flow cytometry","circulating neoplastic cells, human, peripheral blood",24 h,,EC50,18.8 nM
C[C@H](Oc1ccc(Br)cc1-c1ccon1)C(=O)O,relative refractory period,"human, tibialis anterior muscle","200 mg, SAD",,difference from placebo,0.443 ms
CN[C@@H]1COc2c(S(=O)(=O)NC(=O)Nc3c4c(cc5c3CCC5)CCC4)cnn2C1,item: IL-1β,"human participants, whole blood ex vivo","900 mg twice daily, multiple doses, 24 h, with: LPS/ATP",reference: baseline,inhibition,99.4%
c1ccc(-c2n[nH]cc2-c2ccnc3ccccc23)nc1,"kinase binding, competitor, MIB/MS competition, item: IKS1",Candida albicans cell lysate,10 µM,reference: DMSO,log2 fold change,1.56
CCOC(=O)c1ccc(N)cc1,,CD-1 mouse female,"subcutaneous, 6.5 mg/mouse, 0 min",higher = stronger analgesia,tail flick latency,4.13 a.u. and 3.54 a.u. and 3.37 a.u. and 2.77 a.u. and 3.57 a.u.
CCCN(O)N=Nc1ccc(S(=O)(=O)Nc2onc(C)c2C)cc1,carrageenan-induced paw edema,Wistar rat,"oral, 100 mg/kg, 4 h after carrageenan, with: carrageenan 1% subplantar",higher = more edema,paw edema volume,4.32 ± 0.71 a.u.
COc1cc(F)c([C@@H]2CNC(=O)[C@H]2NC(=O)Nc2ccccc2)c(F)c1,,"rat, myocardial infarction","1 mg/kg, 1008 h, 6 weeks after occlusion",,isovolumic relaxation time,14 ± 3 ms
N#Cc1ccn2c(-c3ccncc3)c(-c3ccc(F)cc3)nc2c1,"kinase binding, competitor, MIB/MS competition, item: CTK1",Candida albicans cell lysate,1 µM,reference: DMSO,log2 fold change,-0.0388
COc1cc2cc(-c3ccc(CC(=O)Nc4cc(C(C)(C)C(F)(F)F)no4)cn3)cnc2cc1OC,RECIST v1.1,human RET-altered solid tumours,"75 mg, phase I pooled",,best overall response CR,0%
CCCN(O)N=Nc1ccc(S(=O)(=O)Nc2nccs2)cc1,carrageenan-induced paw edema,Wistar rat,"oral, 100 mg/kg, 2 h after carrageenan, with: carrageenan 1% subplantar",higher = more edema,paw edema volume,5.93 ± 0.81 a.u.
Cc1n[nH]c2ccc(-c3cc(OC[C@@H](N)Cc4ccccc4)cnc3-c3ccoc3)cc12,"kinase binding, competitor, MIB/MS competition, item: RIM11",Candida albicans cell lysate,1 µM,reference: DMSO,log2 fold change,-0.891
Cc1cc(NS(=O)(=O)c2ccc(N=NN(O)c3ccccc3)cc2)no1,carrageenan-induced paw edema,Wistar rat,"oral, 100 mg/kg, 2 h after carrageenan, with: carrageenan 1% subplantar",higher = more edema,paw edema volume,5.1 ± 0.42 a.u.
NC(=O)c1cnc2[nH]ccc2c1N[C@@H]1[C@@H]2CC3C[C@H]1C[C@@](O)(C3)C2,"flow cytometry, item: CD4+ effector memory T cells","Japanese healthy subjects, peripheral blood","oral, 10 mg twice daily, day 4",,change from baseline,0.08%
COc1cc(/C=C/C(=O)N2CCC=CC2=O)cc(OC)c1OC,"qRT-PCR, item: Bcl-xL","nude mouse, 468 xenograft, tumour","15 mg/kg, 21 days, unit not given","reference: β-actin, vehicle",mRNA level,0.474
COc1ccc(C2=N[C@@H](c3ccc(Cl)cc3)[C@@H](c3ccc(Cl)cc3)N2C(=O)N2CCNC(=O)C2)c(OC(C)C)c1,histology,"Dmd C3333Y mice, triceps",dose not given,,centrally nucleated fibres,95% and 74% and 88% and 96% and 86%
C[C@H]1C[C@H]2CSC(N)=N[C@@]2(c2nc(NC(=O)c3ccc(OC(F)F)cn3)cs2)CO1,item: Aβx-40,"healthy adults, plasma","5 mg once daily, day 2",reference: placebo,percent change from baseline,-33.7%
CC(=O)Oc1cc2c(s1)CCN(C(C(=O)C1CC1)c1ccccc1F)C2 (stereo not shown),"platelet aggregation, light transmittance aggregometry","human, platelet-rich plasma","30 min, IPA above 90 %, with: TRAP 15 µM",reference: patients,patients with IPA above threshold,0%
COc1ccccc1[C@H](Cn1c(=O)n(C(C)(C)C(=O)O)c(=O)c2c(C)c(-c3ncco3)sc21)OC1CCOCC1,,human,"200 mg, post-treatment",,serum leptin,4 ± 2.89 ng/mL
CC(C)NCC(O)c1ccc(O)c(O)c1 (stereo not shown),,"ventricular cardiomyocytes, C57BL/6 mouse","dose not given, 0.372 s",,sarcomere length,1.72 µm
Cc1noc(C)c1-c1cc(C(O)(c2ccccn2)c2ccccn2)c2nc(C3CC3)[nH]c2c1,item: HEXIM1 expression,"human, peripheral blood","3 mg, day 8, 1599 study",,maximum induction,12.5%
OC(CCN1CCCCC1)(c1ccccc1)C1CC2C=CC1C2 (stereo not shown),resting-state EEG,healthy elderly humans,"oral, 4 mg, eyes open, LS mean",reference: baseline,change in EEG Alpha1-power Pz-O1,-21.6%
O=S(=O)(NCCNC/C=C/c1ccc(Br)cc1)c1cccc2cnccc12,,mouse zygotes,"20 µM, 48 h post-hCG",,embryos reaching blastocyst,0%
CCN(O)N=Nc1ccc(S(=O)(=O)Nc2onc(C)c2C)cc1,carrageenan-induced paw edema,Wistar rat,"oral, 100 mg/kg, 4 h after carrageenan, with: carrageenan 1% subplantar",higher = more edema,paw edema volume,4.19 ± 0.67 a.u.
COc1cc(-c2ccccc2)ncc1C(=O)Nc1ccc2c(=O)[nH]c(-c3ccc(C(C)(C)O)cc3)nc2c1,"RNA-seq GSEA, item: HALLMARK_MYC_TARGETS_V2","organoids, small intestinal, Apc Q1405X, mouse","dose not given, knockout organoids","reference: DMSO, direction not given",normalized enrichment score,-1.25
Cc1cn(-c2ccc3n(c2=O)CCN([C@@H](C)[C@@H]2CC[C@H](c4cc(F)c(Cl)cc4C(F)(F)F)O2)C3=O)cn1,,"human, CSF","360 mg once daily, 14 days, multiple dose, single LP",reference: placebo,CSF Aβ40 change,-49.9%
CCN(O)N=Nc1ccc(S(=O)(=O)Nc2cc(C)on2)cc1,carrageenan-induced paw edema,Wistar rat,"oral, 100 mg/kg, 4 h after carrageenan, with: carrageenan 1% subplantar",higher = more edema,paw edema volume,4 ± 0.88 a.u.
O=C(O)CNC(=O)Cc1ccccc1,,"ventricular cardiomyocytes, C57BL/6 mouse","dose not given, 0.672 s",,sarcomere length,1.72 µm
